Published values pooled from the literature.
Each line is one published result; not all experiments were run side by side. ± gives the spread as reported.

| Compound | tested on | assay | test system | conditions | endpoint | result |
| --- | --- | --- | --- | --- | --- | --- |
| COc1ccc(F)cc1C(=O)NCc1ccc(-c2nn([C@@H](C)C(F)(F)F)c(N)c2C(N)=O)cc1 | Rec1 | item: PDGF-AA |  | 24 h | IC50 | > 100 nM |
| CN(Cc1cnc2nc(N)nc(N)c2n1)c1ccc(C(=O)N[C@@H](CCC(=O)O)C(=O)O)cc1 | NMP-derived lumbar spinal cord tissues | neural rosette emergence |  |  | IC50 | 610 nM |
| COc1cc2c(Oc3ccc(NC(=O)C4(C(=O)Nc5ccc(F)cc5)CC4)cc3F)ccnc2cc1OCCCN1CCOCC1 | Rh28 (alveolar rhabdomyosarcoma) | cell growth |  | 3 days | IC50 | 480 ± 150 nM |
| CC[C@H](C)[C@@H]1NC(=O)[C@H](Cc2ccc(-c3ccccc3)cc2)NC(=O)[C@H](CC(C)C)NC(=O)[C@@H]2[C@@H](c3ccccc3)CCN2C(=O)[C@H](NC(=O)[C@@H](CCCNC(=N)N)NC(=O)[C@@H](CCCNC(=N)N)NC(=O)[C@H](CCCCN=[N+]=[N-])NC(C)=O)CSCSC[C@@H](C(=O)N[C@H](CCCNC(=N)N)C(=O)N[C@H](CCCNC(=N)N)C(N)=O)NC(=O)[C@H](C(C)C)NC(=O)[C@@H]2CCCN2C(=O)[C@H](CC(=O)O)NC(=O)[C@H](Cc2ccc(O)cc2)NC(=O)[C@](C)(CO)NC1=O | AsPC-1 | AlphaScreen, item: pERK |  | 18 h | IC50 | 7000 nM |
| O=C1NCCC12CCN(c1c(Cl)cncc1-c1ccc3cccnc3c1)CC2 | 7dF3 | WNT reporter gene, inhibitor |  |  | IC50 | 1430 ± 760 nM |
| Cc1cc(N2CCc3c(c(C)nn3CC34CCC(NC(=O)[C@@H]5COCCN5)(CC3)CC4)C2)c2cnn(C)c2n1 | human PBMC | IFN-driven gene expression, inhibitor, qRT-PCR, item: IFI44L mRNA |  | two donors, with: ssRNA | IC50 | 1.6 ± 0.2 nM |
| CCCCN1C[C@H](O)[C@@H](O)[C@H](O)[C@H]1CO | Sandhoff disease patient fibroblasts | glycosphingolipid lowering, LC-MS/MS, item: Gb3 d18:0/16:0 | human |  | IC50 | 2800 nM |
| Nc1ccn([C@@H]2O[C@H](CO)[C@@H](O)C2(F)F)c(=O)n1 | Abrams canine osteosarcoma | cell viability, resazurin |  | 72 h | IC50 | 458 nM |
| CC[C@H](C)[C@@H]1NC(=O)[C@H](Cc2ccc(-c3ccccc3)cc2)NC(=O)[C@H](CC(C)C)NC(=O)[C@@H]2[C@@H](c3ccccc3)CCN2C(=O)[C@H](NC(=O)[C@H](CCCNC(=N)N)NC(=O)[C@H](CCCNC(=N)N)NC(=O)[C@H](CCCCN=[N+]=[N-])NC(C)=O)CSCSC[C@@H](C(=O)N[C@@H](CCCNC(=N)N)C(=O)N[C@@H](CCCNC(=N)N)C(N)=O)NC(=O)[C@H](C(C)C)NC(=O)[C@@H]2CCCN2C(=O)[C@H](CC(=O)O)NC(=O)[C@H](Cc2ccc(O)cc2)NC(=O)[C@H](CO)NC1=O | AsPC-1 | AlphaScreen, item: pERK |  | 2 h | IC50 | 3000 nM |
| C[C@H]1[C@H](OC(=O)CCC(=O)O)O[C@@H]2O[C@@]3(C)CC[C@H]4[C@H](C)CC[C@@H]1[C@@]24OO3 | primary AML blasts, FLT3-ITD | cell viability |  | 96 h, MSC co-culture, range over samples | IC50 | 700 to 31800 nM |
| CCCCN1C[C@H](O)[C@@H](O)[C@@H](O)[C@H]1CO | sample D patient fibroblasts | Gb3 level lowering, LC-MS/MS, item: Gb3 d18:1/24:0 |  | 216 h | IC50 | 10900 nM |
| CCc1nc(C(N)=O)c(Nc2ccc(N3CCC(N4CCN(C(=O)C5CCN(c6ccc(S(=O)(=O)NC(=O)c7ccc(N8CCN(CC9=C(c%10ccc(Cl)cc%10)CC(C)(C)CC9)CC8)cc7Oc7cnc8[nH]ccc8c7)cc6[N+](=O)[O-])CC5)CC4)CC3)c(OC)c2)nc1NC1CCOCC1 | MV4-11 BCL-2 overexpressing, venetoclax-resistant | cell viability, alamarBlue |  | 48 h | IC50 | > 10000 nM |
| Cc1nc(NC(=O)N2CCC[C@H]2C(N)=O)sc1-c1ccnc(C(C)(C)C(F)(F)F)c1 | MFM-223 | growth rate inhibition, CellTiter-Glo |  | 120 h | IC50 | 4240 nM |
| CN1CCN(C(=O)c2ccc([C@H]3[C@@H](F)[C@@H](F)C[C@@H](F)[C@H]3F)cc2)CC1 |  | liver microsome stability | dog liver microsomes | 1 µM | hepatic clearance | 18 mL/min/kg |
| COc1cc([C@@H]2c3cc4c(cc3[C@@H](O[C@@H]3O[C@@H]5CO[C@@H](C)O[C@H]5[C@H](O)[C@H]3O)[C@H]3COC(=O)[C@H]23)OCO4)cc(OC)c1O | untransduced HeLa | CellTiter-Glo |  | 48 h | IC50 | 2400 ± 300 nM |
| CCn1ncc2c1-c1cnc(N)c(c1)O[C@H](C)c1cc(F)ccc1-c1nn(C)nc1C2 | Ba/F3, EGFR L858R/T790M/C797S | cell viability |  |  | IC50 | > 10000 nM |
| COc1cccc2c1C(=O)c1c(O)c3c(c(O)c1C2=O)C[C@@](O)(C(=O)CO)C[C@@H]3O[C@H]1C[C@H](N)[C@H](O)[C@H](C)O1 | KBv200 ABCB1-overexpressing |  |  |  | IC50 | 1430 ± 102 nM |

| Compound | tested on | assay | test system | conditions | endpoint | result |
| --- | --- | --- | --- | --- | --- | --- |
| Cc1nc(Nc2ncc(C(=O)Nc3c(C)cccc3Cl)s2)cc(N2CC[C@H](O)C2)n1 | PEER | cell proliferation, CellTiter-Glo |  | 72 h | IC50 | > 10000 nM |
| Cc1c(C(=O)O)ccc2c3n(nc12)[C@@H]1[C@H](C3)N(CC2CC2)[C@@]2(C(=O)Nc3cc(Cl)ccc32)[C@H]1c1cccc(Cl)c1F | LS180 | cell growth, alamarBlue |  | unbound, 4.5% of total | IC50 | 1.54 nM |
| CN(C)CCC(=O)Nc1ccc([C@H]2[C@@H](F)[C@@H](F)C[C@@H](F)[C@H]2F)cc1 |  | liver microsome stability | dog liver microsomes | 1 µM | hepatic clearance | 28 mL/min/kg |
| Cc1c(C)n(-c2c(C(C)C)cccc2C(C)C)c(=[Se])n1-c1c(C(C)C)cccc1C(C)C | H157 lung carcinoma cells | cell viability, MTT |  | 72 h | IC50 | > 10000 nM |
| CCCCCN1C[C@H](O)[C@@H](O)[C@H](O)[C@@H]1CO | Sandhoff disease patient fibroblasts | glycosphingolipid lowering, LC-MS/MS, item: four GlcCer isoforms |  |  | IC50 | 500 nM |
| CCCN1CCN(c2cccc(-c3cnccc3N3CCCC4(CCNC4=O)C3)c2)CC1 (stereo not drawn) | 7dF3 | WNT reporter gene, inhibitor |  |  | IC50 | > 5000 nM |
| Cc1nc(Nc2ncc(C(=O)Nc3c(C)cccc3Cl)s2)cc(N2CCN(CCO)CC2)n1 | SW1990 | cell viability, MTT |  | mutant KRAS spleen metastasis | IC50 | 4860 nM |
| Cc1ccc(C(=O)Nc2ccc(CN3CCN(C)CC3)c(C(F)(F)F)c2)cc1C#Cc1cnc2cccnn12 | 7dF3 | WNT reporter gene, inhibitor |  |  | IC50 | 41 nM |
| CC(C)c1cccc(C(C)C)c1-n1c(Cl)c(Cl)n(-c2c(C(C)C)cccc2C(C)C)c1=[Se] | H157 lung carcinoma cells | cell viability, MTT |  | 72 h | IC50 | > 10000 nM |
| CO[C@H]1[C@H](O[C@H]([C@H]2O[C@@H](n3ccc(=O)[nH]c3=O)[C@H](O)[C@@H]2O)[C@H](NCCCNC(=O)[C@@H](NC(=O)[C@@H](NC(=O)N[C@H](C(=O)O)C(C)C)[C@@H]2CCN=C(N)N2)[C@@H](OC(=O)CCCCCCCCCCCCN(O)C(=N)N)C(C)C)C(=O)O)O[C@H](CN)[C@H]1O | breast cancer cell lines | cell viability, WST-1 |  | range over panel | IC50 | 590 to 980 nM |
| CC[C@H](C)[C@@H]1NC(=O)[C@H](Cc2ccc(-c3ccccc3)cc2)NC(=O)[C@H](CC(C)C)NC(=O)[C@@H]2[C@@H](c3ccccc3)CCN2C(=O)[C@H](NC(=O)[C@@H](CCCNC(=N)N)NC(=O)[C@@H](CCCNC(=N)N)NC(C)=O)CSCSC[C@@H](C(=O)N[C@H](CCCNC(=N)N)C(=O)N[C@H](CCCNC(=N)N)C(N)=O)NC(=O)[C@H](C(C)C)NC(=O)[C@@H]2CCCN2C(=O)[C@H](CC(=O)O)NC(=O)[C@H](Cc2ccc(O)cc2)NC(=O)[C@](C)(CO)NC1=O | AsPC-1 | AlphaScreen, item: pERK |  | 2 h | IC50 | 4000 nM |
| COc1cc(C(=O)c2nc(-c3cccc4[nH]ccc34)c[nH]2)cc2c1OCO2 | PC-3/TxR paclitaxel-resistant | cell growth, MTS |  | 72 h | IC50 | 1.9 ± 0.2 nM |
| CC[C@H](C)[C@@H]1NC(=O)[C@H](Cc2ccc(-c3ccccc3)cc2)NC(=O)[C@H](CC(C)C)NC(=O)[C@@H]2[C@@H](c3ccccc3)CCN2C(=O)[C@H](NC(=O)[C@H](CCCNC(=N)N)NC(=O)[C@H](CCCNC(=N)N)NC(C)=O)CSCSC[C@@H](C(=O)N[C@@H](CCCNC(=N)N)C(=O)N[C@@H](CCCNC(=N)N)C(N)=O)NC(=O)[C@H](C(C)C)NC(=O)[C@@H]2CCCN2C(=O)[C@H](CC(=O)O)NC(=O)[C@H](Cc2ccc(O)cc2)NC(=O)[C@H](CO)NC1=O | AsPC-1 | AlphaScreen, item: pERK |  | 2 h | IC50 | 3000 nM |
| CC1(C)CCC(CN2CCN(c3ccc(C(=O)NS(=O)(=O)c4ccc(NCC5CCOCC5)c([N+](=O)[O-])c4)c(Oc4cnc5[nH]ccc5c4)c3)CC2)=C(c2ccc(Cl)cc2)C1 | CD56+ NK cells from AML patients | cell viability, high-throughput flow cytometry |  |  | IC50 | 5.73 nM |
| Cc1[nH]c(/C=C2\C(=O)Nc3ccc(S(=O)(=O)N(C)c4cccc(Cl)c4)cc32)c(C)c1C(=O)N1CCN(C)CC1 | Rh28 (alveolar rhabdomyosarcoma) | cell growth |  | 3 days | IC50 | 4500 ± 1860 nM |
| Nc1nnc(-c2ccccc2O)cc1N1CCN(Cc2ccc(OCCOCCNc3cccc4c3C(=O)N(C3CCC(=O)NC3=O)C4=O)c(F)c2)CC1 (stereo not drawn) | SMARCA4-mutant lung cancer cells | clonogenic growth |  | 10 days, median over cell lines | IC50 | 110 nM |

For quick reference, copied from above:
| Compound | tested on | assay | test system | conditions | endpoint | result |
| --- | --- | --- | --- | --- | --- | --- |
| Cc1nc(Nc2ncc(C(=O)Nc3c(C)cccc3Cl)s2)cc(N2CC[C@H](O)C2)n1 | PEER | cell proliferation, CellTiter-Glo |  | 72 h | IC50 | > 10000 nM |
| Cc1c(C(=O)O)ccc2c3n(nc12)[C@@H]1[C@H](C3)N(CC2CC2)[C@@]2(C(=O)Nc3cc(Cl)ccc32)[C@H]1c1cccc(Cl)c1F | LS180 | cell growth, alamarBlue |  | unbound, 4.5% of total | IC50 | 1.54 nM |
| CN(C)CCC(=O)Nc1ccc([C@H]2[C@@H](F)[C@@H](F)C[C@@H](F)[C@H]2F)cc1 |  | liver microsome stability | dog liver microsomes | 1 µM | hepatic clearance | 28 mL/min/kg |
| Cc1c(C)n(-c2c(C(C)C)cccc2C(C)C)c(=[Se])n1-c1c(C(C)C)cccc1C(C)C | H157 lung carcinoma cells | cell viability, MTT |  | 72 h | IC50 | > 10000 nM |
| CCCCCN1C[C@H](O)[C@@H](O)[C@H](O)[C@@H]1CO | Sandhoff disease patient fibroblasts | glycosphingolipid lowering, LC-MS/MS, item: four GlcCer isoforms |  |  | IC50 | 500 nM |
